# Published values pooled from the literature.
# Every numbered part comes from another study and shows a few of its results, in no order.

# Block 1
# Target: Histone acetyltransferase KAT6A, winged helix 2, GST fusion (KAT6A, Homo sapiens, UniProt Q92794, residues 85-181)
# Method: protein binding microarray
# Molecule type: double-stranded DNA, one strand shown
# Medium: in vitro
# Concentration: not given
# Notes: 8-mer, flanks averaged, mean of 2 arrays, mostly near background
# Relative to: not given
# Reading: higher = stronger binding
# Residues (chain): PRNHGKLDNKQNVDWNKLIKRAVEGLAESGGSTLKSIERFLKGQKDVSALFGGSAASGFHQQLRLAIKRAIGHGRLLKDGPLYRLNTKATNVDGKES
Sequence,E-score
CAGGCTGA,0.0253
CTATTTGC,-0.128
CTGCACGA,0.0299
TAGGCATA,-0.0695
AGGTAAGG,-0.137
GCTTGCTA,0.008
GGCCGAGA,0.224
TAAGTATA,0.0867
AGATAGCC,-0.0849
AGCACGAG,0.163
AATGCGTC,-0.0623
AAACCGAG,0.0441
AGGGATAT,-0.0577
ACGACGCA,0.119
GAAGCATA,0.0693
ATAACCCC,-0.204
GACAACCC,-0.1
CGAGGTTC,0.0722
AGGACTCC,-0.0881
ACGTATTG,-0.182
ACACACCT,-0.0799
GTACCACA,0.0241
ATGGAGGG,0.0532
ACGTCCCG,0.00396
AGGTTGGA,0.0774

# Block 2
# Target: Prothrombin, mature alpha-thrombin (F2, Homo sapiens, UniProt P00734)
# Method: aptamer microarray, sandwich
# Molecule type: DNA with 2'F-ANA
# Medium: in vitro
# Concentration: 200 nM
# Notes: whole 15-mer aptamer, many near background
# With: Cy3 exosite-II aptamer, 400 nM
# Reading: higher = stronger binding
# Sequence: GGTTGGTGTGGTTGG
Modification,mean fluorescence intensity
2'F-ANA at 1 3 4 9 10 13 14,56.6 a.u.
2'F-ANA at 3 4 8 10 11 12 14 15,176 a.u.
2'F-ANA at 2 3 4 9 11 14,270 a.u.
2'F-ANA at 2 3 4 8 11 13 15,484 a.u.
2'F-ANA at 2 3 4 5 6 8 10 14 15,76.4 a.u.
2'F-ANA at 3 4 9 11 12 15,678 a.u.
2'F-ANA at 1 2 3 5 8 10 15,47.2 a.u.
2'F-ANA at 1 2 3 4 5 9 12 13 14,42.9 a.u.
2'F-ANA at 2 4 6 8 10 14 15,58.7 a.u.
2'F-ANA at 2 3 5 6 8 11 14,50.2 a.u.
2'F-ANA at 2 5 8 9 10 12,63.7 a.u.
2'F-ANA at 2 5 6 7 8 11 12 14 15,51.5 a.u.
2'F-ANA at 2 5 6 8 9 11 12 13 15,87.4 a.u.
2'F-ANA at 2 8 10 12 13 14,101 a.u.
2'F-ANA at 1 2 7 12 13,279 a.u.
2'F-ANA at 1 2 5 9 11 12 13,67.8 a.u.

# Block 3
# Target: Interferon regulatory factor 7, full length, phosphomimetic (IRF7, Homo sapiens, UniProt Q92985, residues 1-503, S101K/S471D/S472D/S475D/S476D/S477D/S483D/S484D/S487D)
# Sequence of UniProt Q92985 (whole entry, unmodified, looked up): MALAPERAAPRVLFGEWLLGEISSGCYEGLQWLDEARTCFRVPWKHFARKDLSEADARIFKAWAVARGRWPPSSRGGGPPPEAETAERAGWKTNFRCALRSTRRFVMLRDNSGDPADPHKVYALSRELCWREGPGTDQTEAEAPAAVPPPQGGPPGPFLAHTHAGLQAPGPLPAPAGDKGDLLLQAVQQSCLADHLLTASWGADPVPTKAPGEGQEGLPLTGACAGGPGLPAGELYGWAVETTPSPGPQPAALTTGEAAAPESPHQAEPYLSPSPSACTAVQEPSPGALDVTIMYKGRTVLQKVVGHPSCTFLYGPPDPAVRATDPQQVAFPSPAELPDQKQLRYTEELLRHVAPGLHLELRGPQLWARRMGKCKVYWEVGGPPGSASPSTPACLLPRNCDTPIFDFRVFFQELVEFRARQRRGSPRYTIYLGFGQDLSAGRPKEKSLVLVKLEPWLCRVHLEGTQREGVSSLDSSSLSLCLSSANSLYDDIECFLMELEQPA
# Method: protein-binding microarray
# Molecule type: double-stranded DNA, one strand shown
# Medium: in vitro
# Concentration: 250 nM
# Notes: 60-bp whole probe
# With: salmon DNA 0.4 mg/ml
# Relative to: random background probes
# Reading: higher = stronger binding
# Shared flanks, not repeated: GCCTAGCAC … GTCTTGATTCGCTTGACGCTGCTG
Sequence,log fluorescence
TTAGAACTGAGTCTCGATTTGTGCTAG,4.69 z-score
TTAGGTTCAGGTTTCGGTTAGTGCTAG,8.66 z-score
TTAGGTATCCTTTTCCTGTAGTGCTAG,1.4 z-score
TAAGGTATCGGGTATCGGTTAGTGCTA,1.53 z-score
TTAGGTTTCAGACTGGGTTAGTGCTAG,0.544 z-score
GGGAGATGACTAAGAGGGGTGTGCTAG,-1.05 z-score
TTAGATATCGGTTTCGATTAGTGCTAG,9.4 z-score
TTAGGTATCCTTTTCCGTTAGTGCTAG,1.59 z-score
GACGGTTTCATTTCCCTGACGTGCTAG,5.66 z-score
ATAGGACTGGGTATCGGTTAGTGCTAG,0.948 z-score
TTAGAACTGAGTATTGATTAGTGCTAG,-0.196 z-score
TACGATTTCAGTCTCGAGACGTGCTAG,0.952 z-score
GACGATATCGGGACTGGGGACGTGCTA,-0.185 z-score
TTAGGACTGGGGACTGCGTTAGTGCTA,-0.385 z-score
TTAGATATCGGGTTTCGTTTAGTGCTA,7.01 z-score
TCAGGACTGGGGACTGGGTTAGTGCTA,-0.692 z-score
GACGGACTGGGTATCGTGACGTGCTAG,-0.463 z-score
TTGGGTTTCGGTTCCGGTTAGTGCTAG,11.6 z-score
CACAGGCTGCACAGAATGTAGTGCTAG,-0.931 z-score

# Block 4
# Target: RNA binding protein fox-1 homolog 2, RRM domain, GST-SBP tag (RBFOX2, Homo sapiens, UniProt O43251-10, residues 100-194)
# Method: RNA Bind-n-Seq
# Molecule type: RNA
# Medium: in vitro
# Concentration: 365 nM
# Notes: natural RNA segment, single round, ends assumed
# Relative to: no-protein control
# Reading: higher = stronger binding
# Construct (chain): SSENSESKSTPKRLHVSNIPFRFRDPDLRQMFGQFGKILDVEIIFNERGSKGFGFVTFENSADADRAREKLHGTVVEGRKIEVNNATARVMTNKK
Sequence,RBNS enrichment (R)
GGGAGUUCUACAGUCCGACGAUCUCACUUGAUUGAGCAUAUUGAUUUGAAAGAGCUAAGAUUUUCCUGCUUAAUGUCAGCCAUUGGCUCUCCUGAUAAUUGGGACUUUUUGUUUGUUUGUUUUUUGUUGUUUUUGGAAUUCUCGGGUGCCAA,6.17
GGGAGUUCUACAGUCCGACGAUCCCCGAGCCUCAAGGCAAGUCCAGGACUCAGACCGGGGAGGCCCGGGCCAGCAGCUCCCAGUGUGACCUGACAAAAACACGUAGGGGCAGGGACGGUCCCCACCCCCAGGGUGGAAUUCUCGGGUGCCAA,0.234
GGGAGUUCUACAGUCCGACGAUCUGUAAUAGUUAAGAAAUCAUUUUUUCUGAAUGACUUAAAAAAUUUGAUUGAAAAUUUGGCAAAUUACAUUAUUUGUACUAGAAUUUGACCUAAAACACUUUUUAUGUUUGUGGAAUUCUCGGGUGCCAA,2.5
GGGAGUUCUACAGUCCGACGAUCUCAACUGCUAGUGCUAACGCUGUCCUGUACAACCUAACUCACUGGCAAGAAUGCAGUGUUGGGCCUUUCAACCACUAGAACAAACUUUUUUCAAUUGACAGUUGCAGAAUUGGAAUUCUCGGGUGCCAA,0.265
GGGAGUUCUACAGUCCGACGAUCUGUGAAGAGCAUCUCAGAUAAGGGUUCUUAAAAGGGGGGAUGGGCAGAGUACAGUAGAGGAGGACUUGUUAGGUUCAUUGUUCCCCGGAAGAAGCUUCCUGCAAUGCCCAUGGAAUUCUCGGGUGCCAA,0.751
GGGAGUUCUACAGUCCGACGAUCCUGGGCAAAAGUCUGAAGAUCUGAAAUAACUUUAUAUCAAACCAUUGAUCAAUAAACAGCUACUAAUAAGUGUUUGGUCCUGUUGAGCAGUAACUAAAAUAAGGGAAGAUUGGAAUUCUCGGGUGCCAA,0.318
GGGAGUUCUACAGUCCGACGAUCUUAAGUGACAAACACGGUCAAAAGCUUAAGGGACAGGUUUUAUGGUUGCUUGUGUAAUAAAGCAUGUCCUUCGUAUGUCACAGUUUGGGGCAACGGAAGUCUUUUAGUGAUGGAAUUCUCGGGUGCCAA,25.2
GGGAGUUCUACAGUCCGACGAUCGCAACAAAAAGUCCUUGUCGAAACCACAUUUCAAGUCCUUUUACGUAUAACCAUCCUUCGGCCAGCCCCGGUAGGCAGGGGAUGAGUCAUUCCAGGUCGGCAUCCUCCGGUGGAAUUCUCGGGUGCCAA,0.288

# Further values, each from its own experiment
Molecule,target,test,test system,conditions,scale,endpoint,value
"PhoQ, residues 284 288 289 292 302 303 SNGLAW","PhoP, residues 12 14 15 18 19 NHTVL (Escherichia coli, UniProt P23836)","Sort-seq, refers to: YFP reporter",E. coli,"PhoQ-PhoP variant library, with: 10 µM Mg2+","relative to: high Mg2+ state, higher = stronger signaling",fold induction,6.94
